Published values from different studies.
Compare with care: the assays were run in different laboratories.
Organism: Pseudomonas aeruginosa

`CC[C@H](C)[C@H](NC(=O)[C@H](CC(C)C)NC(=O)[C@H](CCCNC(=N)N)NC(=O)[C@H](CCCNC(=N)N)NC(=O)[C@H](CCCNC(=N)N)NC(=O)[C@H](CCCNC(=N)N)NC(=O)[C@H](CC(C)C)NC(=O)[C@@H](NC(=O)[C@@H](NC(=O)[C@@H](NC(=O)[C@H](CCCNC(=N)N)NC(=O)[C@H](CCCNC(=N)N)NC(=O)[C@H](CCCNC(=N)N)NC(=O)[C@@H](N)CCCNC(=N)N)C(C)C)[C@@H](C)CC)[C@@H](C)CC)C(=O)N[C@@H](CO)C(=O)N[C@@H](Cc1ccccc1)C(=O)N[C@@H](CO)C(=O)N[C@@H](C)C(=O)N[C@@H](Cc1ccc(O)cc1)C(N)=O` has an MIC of 8 µM (broth microdilution; ATCC 27853; highest value reported).
`CC1(C)SC2C(NC(=O)C(NC(=O)C3=C(O)C(Cc4ccccc4)NC3=O)c3ccccc3)C(=O)N2C1C(=O)O` (centres unmarked) has an MIC of 12.5 µg/mL (pqsE mutant).
`N=C(N)NCCC[C@H](NC(=O)[C@@H](N)CCCNC(=N)N)C(=O)N[C@@H](Cc1c[nH]c2ccccc12)C(=O)N[C@@H](Cc1c[nH]c2ccccc12)C(=O)N[C@@H](Cc1ccccc1)C(=O)N[C@@H](CCC(N)=O)C(=O)N[C@@H](Cc1ccccc1)C(=O)N[C@@H](CCC(N)=O)C(=O)N[C@@H](Cc1ccccc1)C(=O)N[C@@H](CCCCN)C(N)=O` has an MIC of 570 µM (broth microdilution, optical density).
For `CC[C@H](C)[C@H](N)C(=O)N[C@@H](CCCNC(=N)N)C(=O)N[C@H](C(=O)N[C@@H](Cc1c[nH]c2ccccc12)C(=O)N[C@@H](Cc1c[nH]c2ccccc12)C(=O)N[C@@H](CCCCN)C(=O)N[C@H](C(=O)N[C@H](C(=O)N[C@@H](CCCNC(=N)N)C(=O)N[C@@H](CCCCN)C(=O)N[C@@H](Cc1c[nH]c2ccccc12)C(=O)N[C@@H](CCCCN)C(=O)N[C@@H](C)C(=O)N[C@H](C(=O)N[C@@H](Cc1c[nH]c2ccccc12)C(=O)N[C@@H](Cc1c[nH]cn1)C(N)=O)[C@@H](C)CC)C(C)C)[C@@H](C)CC)C(C)C`, the MIC was 100 µM (broth dilution; ATCC 27853).
With `CC[C@H](C)[C@H](NC(=O)[C@H](CC(C)C)NC(=O)[C@H](CCCCN)NC(=O)[C@@H](NC(=O)[C@H](C)NC(=O)[C@H](CCC(=O)O)NC(=O)[C@H](Cc1c[nH]cn1)NC(=O)[C@@H](NC(=O)[C@H](CCCCN)NC(=O)[C@H](CCC(N)=O)NC(=O)[C@H](Cc1ccccc1)NC(=O)[C@@H](NC(=O)[C@H](CCCCN)NC(=O)[C@H](CCCCN)NC(=O)[C@H](CC(C)C)NC(=O)[C@H](C)N)C(C)C)[C@@H](C)CC)[C@@H](C)CC)C(N)=O` the MIC was 8 µM (broth microdilution; 4891 resistant; 18 h, 37 °C).
For `CC[C@H](C)[C@H](NC(=O)CNC(=O)[C@H](CC(=O)O)NC(=O)[C@H](CCCNC(=N)N)NC(=O)[C@@H](NC(=O)[C@H](CC(N)=O)NC(=O)[C@H](C)NC(=O)CNC(=O)[C@@H](NC(=O)[C@H](CCCCN)NC(=O)[C@H](CCC(=O)O)NC(=O)[C@@H](NC(=O)[C@H](CCCCN)NC(=O)[C@H](CCCCN)NC(=O)[C@H](Cc1ccccc1)NC(=O)[C@@H](NC(=O)[C@H](CCCCN)NC(=O)[C@H](Cc1c[nH]c2ccccc12)NC(=O)[C@@H](N)CCCNC(=N)N)[C@@H](C)CC)[C@@H](C)CC)C(C)C)C(C)C)C(=O)N[C@H](C(=O)N[C@@H](CCCCN)C(=O)N[C@@H](C)C(=O)NCC(=O)N1CCC[C@H]1C(=O)N[C@@H](C)C(=O)N[C@H](C(=O)N[C@@H](C)C(=O)N[C@H](C(=O)N[C@H](C(=O)NCC(=O)N[C@@H](CCC(N)=O)C(=O)N[C@@H](C)C(=O)N[C@@H](C)C(=O)N[C@H](C(=O)N[C@H](C(=O)N[C@H](C(=O)N[C@@H](CCCCN)C(N)=O)C(C)C)C(C)C)[C@@H](C)O)C(C)C)C(C)C)C(C)C)[C@@H](C)CC`, the MIC was 16 µM (KCCM 11328, Mueller-Hinton broth; 16 h, 37 °C; growth inhibition over 99%).
With `CC1(C)SC2C(NC(=O)C(NC(=O)C3=C(O)CN(c4ccccc4)C3=O)c3ccccc3)C(=O)N2C1C(=O)O` (centres unmarked) the MIC was 50 µg/mL (pvdS mutant).
`CC[C@H](C)[C@H](NC(=O)[C@H](CC(C)C)NC(=O)[C@H](CCCNC(=N)N)NC(=O)[C@@H](N)CCCNC(=N)N)C(=O)N[C@@H](CCCNC(=N)N)C(=O)N[C@@H](CCCCN)C(=O)N[C@@H](CC(C)C)C(=O)N[C@@H](CCCCN)C(=O)NCC(=O)N1CCC[C@H]1C(=O)N[C@@H](CCCCN)C(=O)N[C@H](C(=O)N[C@@H](Cc1ccc(O)cc1)C(=O)N[C@@H](CC(C)C)C(=O)N[C@@H](Cc1ccc(O)cc1)C(=O)N[C@@H](Cc1ccccc1)C(=O)N[C@@H](CCCCN)C(=O)N[C@@H](CC(C)C)C(=O)N[C@@H](CCC(N)=O)C(=O)N[C@@H](CC(C)C)C(=O)N[C@@H](CC(C)C)C(=O)N[C@@H](CCCCN)C(=O)N[C@@H](CCCCN)C(N)=O)[C@@H](C)CC` gave an MIC of 16 µM (KCTC 1637, Mueller-Hinton broth; 24 h).
The MIC of `CC1(C)S[C@@H]2[C@H](NC(=O)C(C(=O)O)c3ccccc3)C(=O)N2[C@H]1C(=O)O` (some centres unmarked) is reported as 12.5 µg/mL (pvcA mutant).
For `CC[C@H](C)[C@H](NC(=O)CNC(=O)[C@H](C)NC(=O)[C@@H](NC(=O)[C@@H](NC(=O)[C@@H](NC(=O)[C@H](CCCNC(=N)N)NC(=O)[C@@H](NC(=O)[C@@H](NC(=O)[C@@H](NC(=O)[C@@H]1CCCN1C(=O)[C@H](Cc1c[nH]c2ccccc12)NC(=O)[C@@H](NC(=O)[C@H](CCCNC(=N)N)NC(=O)[C@H](CCCCN)NC(=O)[C@@H](NC(=O)[C@@H](N)CCCNC(=N)N)[C@@H](C)CC)C(C)C)C(C)C)C(C)C)[C@@H](C)CC)[C@@H](C)O)C(C)C)C(C)C)C(=O)N[C@@H](CC(N)=O)C(=O)N[C@@H](CC(C)C)C(=O)N[C@@H](Cc1ccc(O)cc1)C(=O)N[C@@H](CCCNC(=N)N)C(=O)N[C@@H](C)C(=O)N[C@H](C(=O)N[C@@H](CCCCN)C(=O)N[C@@H](CCCNC(=N)N)C(=O)N[C@@H](CCCCN)C(=O)O)[C@@H](C)CC`, the MIC was 2.83 µM (broth microdilution; ATCC 27853, Mueller-Hinton broth; 16 to 20 h, 37 °C).
For `CC[C@H](C)[C@H](NC(=O)[C@H](Cc1ccc(O)cc1)NC(=O)[C@@H](NC(=O)[C@H](Cc1ccc(O)cc1)NC(=O)[C@@H]1CCCN1C(=O)[C@@H](NC(=O)[C@H](C)N)[C@@H](C)CC)[C@@H](C)CC)C(=O)N[C@@H](Cc1c[nH]c2ccccc12)C(=O)N[C@@H](CCCNC(=N)N)C(=O)N[C@@H](CC(C)C)C(=O)N[C@@H](CC(C)C)C(=O)N[C@@H](CCCNC(=N)N)C(=O)N[C@@H](CCCCN)C(=O)NCC(=O)O`, the MIC was over 15 µM (broth microdilution; PAO1; 18 h, 37 °C).
For `CC1(C)SC2C(NC(=O)C(NC(=O)C3=C(O)C(c4ccccc4)NC3=O)c3ccccc3)C(=O)N2C1C(=O)O` (centres unmarked), the MIC was 25 µg/mL (broth microdilution; TonB-dependent receptor mutant; PA two-allele library).
The MIC of `CC[C@H](C)[C@H](NC(=O)CNC(=O)[C@H](CC(=O)O)NC(=O)[C@H](CCCNC(=N)N)NC(=O)[C@@H](NC(=O)[C@H](CC(N)=O)NC(=O)[C@H](CCCNC(=N)N)NC(=O)CNC(=O)[C@@H](NC(=O)[C@H](CCCCN)NC(=O)[C@H](CCC(=O)O)NC(=O)[C@@H](NC(=O)[C@H](CCCCN)NC(=O)[C@H](CCCCN)NC(=O)[C@H](Cc1ccccc1)NC(=O)[C@@H](NC(=O)[C@H](CCCCN)NC(=O)[C@H](Cc1c[nH]c2ccccc12)NC(=O)[C@@H](N)CCCNC(=N)N)[C@@H](C)CC)[C@@H](C)CC)C(C)C)C(C)C)C(=O)N[C@H](C(=O)N[C@@H](CCCCN)C(=O)N[C@@H](C)C(=O)NCC(=O)N1CCC[C@H]1C(=O)N[C@@H](C)C(=O)N[C@H](C(=O)N[C@@H](C)C(=O)N[C@H](C(=O)N[C@H](C(=O)NCC(=O)N[C@@H](CCC(N)=O)C(=O)N[C@@H](C)C(=O)N[C@@H](C)C(=O)N[C@H](C(=O)N[C@H](C(=O)N[C@H](C(=O)N[C@@H](CCC(=O)O)C(N)=O)C(C)C)C(C)C)[C@@H](C)O)C(C)C)C(C)C)C(C)C)[C@@H](C)CC` is reported as 16 µM (KCCM 11328, Mueller-Hinton broth; 16 h, 37 °C; growth inhibition over 99%).
The MIC of `CC[C@@H](C)[C@@H](NC(=O)[C@@H](CC(C)C)NC(=O)[C@H](NC(=O)[C@H](NC(=O)[C@H](NC(=O)[C@@H](CCCNC(=N)N)NC(=O)[C@@H](CCCNC(=N)N)NC(=O)[C@@H](CCCNC(=N)N)NC(=O)[C@H](N)CCCNC(=N)N)C(C)C)[C@H](C)CC)[C@H](C)CC)C(=O)N[C@@H](C(=O)N[C@H](CC(C)C)C(=O)N[C@H](CCCNC(=N)N)C(=O)N[C@H](CCCNC(=N)N)C(=O)N[C@H](CCCNC(=N)N)C(=O)N[C@H](CCCNC(=N)N)C(=O)N[C@H](Cc1ccccc1)C(=O)N[C@H](CO)C(=O)N[C@H](C)C(=O)N[C@H](Cc1ccc(O)cc1)C(N)=O)C(C)C` is reported as 8 µM (broth microdilution; ATCC 27853; highest value reported).
With `CC[C@H](C)[C@H](NC(=O)CNC(=O)[C@H](CC(=O)O)NC(=O)[C@H](C)NC(=O)[C@@H](NC(=O)[C@H](CC(N)=O)NC(=O)[C@H](CCCNC(=N)N)NC(=O)CNC(=O)[C@@H](NC(=O)[C@H](CCCCN)NC(=O)[C@H](CCC(=O)O)NC(=O)[C@@H](NC(=O)[C@H](CCCCN)NC(=O)[C@H](CCCCN)NC(=O)[C@H](Cc1ccccc1)NC(=O)[C@@H](NC(=O)[C@H](CCCCN)NC(=O)[C@H](Cc1c[nH]c2ccccc12)NC(=O)[C@@H](N)CCCNC(=N)N)[C@@H](C)CC)[C@@H](C)CC)C(C)C)C(C)C)C(=O)N[C@H](C(=O)N[C@@H](CCCCN)C(=O)N[C@@H](C)C(=O)NCC(=O)N1CCC[C@H]1C(=O)N[C@@H](C)C(=O)N[C@H](C(=O)N[C@@H](C)C(=O)N[C@H](C(=O)N[C@H](C(=O)NCC(=O)N[C@@H](CCC(N)=O)C(=O)N[C@@H](C)C(=O)N[C@@H](C)C(=O)N[C@H](C(=O)N[C@H](C(=O)N[C@H](C(=O)N[C@@H](CCCCN)C(N)=O)C(C)C)C(C)C)[C@@H](C)O)C(C)C)C(C)C)C(C)C)[C@@H](C)CC` the MIC was 16 µM (KCCM 11328, Mueller-Hinton broth; 16 h, 37 °C; growth inhibition over 99%).
`CC1(C)SC2C(NC(=O)C(NC(=O)C3=C(O)C(Cc4ccc(F)cc4)NC3=O)c3ccccc3)C(=O)N2C1C(=O)O` (centres unmarked) gave an MIC of 12.5 µg/mL (pvdS mutant).
With `C[C@H]1COc2c(N3CCN(C)CC3)c(F)cc3c(=O)c(C(=O)O)cn1c23` the MIC was over 8 µg/mL (1188712, multidrug-resistant).
`CC(C)(C)OCC1NC(=O)C(C(=O)NC(C(=O)NC2C(=O)N3C2SC(C)(C)C3C(=O)O)c2ccccc2)=C1O` (centres unmarked) has an MIC of 25 µg/mL (pvdA mutant).
For `CN1C(=O)Cc2ccc(F)c(CNCCCC3CN(c4ccc5c(n4)NC(=O)CO5)C(=O)O3)c21` (centres unmarked), the MIC was 2 µg/mL (ATCC 27853).
For `CC[C@H](C)[C@H](N)C(=O)N[C@@H](CC(C)C)C(=O)NCC(=O)N[C@@H](CCC(=O)O)C(=O)N[C@H](C(=O)N[C@@H](Cc1c[nH]c2ccccc12)C(=O)N[C@@H](CCCCN)C(=O)NCC(=O)N[C@H](C(=O)N[C@@H](CCCCN)C(=O)N[C@@H](CC(=O)O)C(=O)N[C@H](C(=O)N[C@@H](CC(C)C)C(N)=O)[C@@H](C)CC)[C@@H](C)CC)[C@@H](C)CC`, the MIC was over 100 µM (broth microdilution; ATCC BAA-427, Mueller-Hinton broth; 16 h, 37 °C).
